Published values pooled from the literature.
Organism: Pseudomonas aeruginosa

CC[C@H](C)[C@H](NC(=O)CNC(=O)[C@H](CC(=O)O)NC(=O)[C@H](CCCNC(=N)N)NC(=O)[C@@H](NC(=O)[C@H](CC(N)=O)NC(=O)[C@H](CCCNC(=N)N)NC(=O)CNC(=O)[C@@H](NC(=O)[C@H](CCCCN)NC(=O)[C@H](CCC(=O)O)NC(=O)[C@@H](NC(=O)[C@H](CCCCN)NC(=O)[C@H](CCCCN)NC(=O)[C@H](Cc1ccccc1)NC(=O)[C@@H](NC(=O)[C@H](CCC(=O)O)NC(=O)[C@H](Cc1c[nH]c2ccccc12)NC(=O)[C@@H](N)CCCNC(=N)N)[C@@H](C)CC)[C@@H](C)CC)C(C)C)C(C)C)C(=O)N[C@H](C(=O)N[C@@H](CCCCN)C(=O)N[C@@H](C)C(=O)NCC(=O)N1CCC[C@H]1C(=O)N[C@@H](C)C(=O)N[C@H](C(=O)N[C@@H](C)C(=O)N[C@H](C(=O)N[C@H](C(=O)NCC(=O)N[C@@H](CCC(N)=O)C(=O)N[C@@H](C)C(=O)N[C@@H](C)C(=O)N[C@H](C(=O)N[C@H](C(=O)N[C@H](C(=O)N[C@@H](CCCCN)C(N)=O)C(C)C)C(C)C)[C@@H](C)O)C(C)C)C(C)C)C(C)C)[C@@H](C)CC
MIC (KCCM 11328, Mueller-Hinton broth; 16 h, 37 °C; growth inhibition over 99%): > 64 µM

CC1(C)SC2C(NC(=O)C(NC(=O)C3=C(O)C(Cc4ccccc4)NC3=O)c3ccccc3)C(=O)N2C1C(=O)O (stereo not shown)
MIC (broth microdilution; TonB-dependent receptor mutant; PA two-allele library): 12.5 mg/L

CC[C@H](C)[C@H](NC(=O)[C@H](CC(C)C)NC(=O)[C@H](CCCNC(=N)N)NC(=O)[C@@H](N)CCCNC(=N)N)C(=O)N[C@@H](CCCNC(=N)N)C(=O)N[C@@H](CCCCN)C(=O)N[C@@H](CC(C)C)C(=O)N[C@@H](CCCCN)C(=O)NCC(=O)N1CCC[C@H]1C(=O)N[C@H](C(=O)N[C@H](C(=O)N[C@@H](Cc1ccc(O)cc1)C(=O)N[C@@H](CC(C)C)C(=O)N[C@@H](Cc1ccc(O)cc1)C(=O)N[C@@H](Cc1ccccc1)C(=O)N[C@@H](CCCCN)C(=O)N[C@@H](CC(C)C)C(=O)N[C@@H](CCC(N)=O)C(=O)N[C@@H](CC(C)C)C(=O)N[C@@H](CC(C)C)C(=O)N[C@@H](CCCCN)C(=O)N[C@@H](CCCCN)C(N)=O)[C@@H](C)CC)[C@@H](C)CC
MIC (KCTC 1637, Mueller-Hinton broth; 24 h): 32 µM

CC1(C)S[C@@H]2[C@H](NC(=O)C(C(=O)O)c3ccccc3)C(=O)N2[C@H]1C(=O)O (stereo partly shown)
MIC (fptA mutant): 25 mg/L

CC[C@H](C)[C@H](N)C(=O)N[C@@H](CC(C)C)C(=O)NCC(=O)N[C@@H](CCCNC(=N)N)C(=O)N[C@H](C(=O)N[C@@H](Cc1c[nH]c2ccccc12)C(=O)N[C@@H](CCCCN)C(=O)NCC(=O)N[C@H](C(=O)N[C@@H](CCCCN)C(=O)N[C@@H](CC(=O)O)C(=O)N[C@H](C(=O)N[C@@H](CC(C)C)C(N)=O)[C@@H](C)CC)[C@@H](C)CC)[C@@H](C)CC
MIC (broth microdilution; ATCC BAA-427, Mueller-Hinton broth; 16 h, 37 °C): 25 µM

CC[C@H](C)[C@H](NC(=O)[C@H](Cc1c[nH]c2ccccc12)NC(=O)[C@@H](NC(=O)[C@H](Cc1ccc(O)cc1)NC(=O)[C@@H]1CCCN1C(=O)[C@@H](NC(=O)[C@H](C)N)[C@@H](C)CC)[C@@H](C)CC)C(=O)N[C@@H](Cc1ccc(O)cc1)C(=O)N[C@@H](CCCNC(=N)N)C(=O)N[C@@H](CC(C)C)C(=O)N[C@@H](CC(C)C)C(=O)N[C@@H](CCCNC(=N)N)C(=O)N[C@@H](CCCCN)C(=O)NCC(N)=O
MIC (broth microdilution; PAO1; 18 h, 37 °C): 15 µM

CC[C@H](C)[C@H](NC(=O)CNC(=O)[C@H](CC(=O)O)NC(=O)[C@H](CCCNC(=N)N)NC(=O)[C@@H](NC(=O)[C@H](CC(N)=O)NC(=O)[C@H](CCCNC(=N)N)NC(=O)CNC(=O)[C@@H](NC(=O)[C@H](CCCCN)NC(=O)[C@H](CCC(=O)O)NC(=O)[C@@H](NC(=O)[C@H](CCCCN)NC(=O)[C@H](CCCCN)NC(=O)[C@H](Cc1ccccc1)NC(=O)[C@@H](NC(=O)[C@H](CCCCN)NC(=O)[C@H](Cc1c[nH]c2ccccc12)NC(=O)[C@@H](N)CCCNC(=N)N)[C@@H](C)CC)[C@@H](C)CC)C(C)C)C(C)C)C(=O)N[C@H](C(=O)N[C@@H](CCCCN)C(=O)N[C@@H](C)C(=O)NCC(=O)NCC(=O)N[C@@H](C)C(=O)N[C@H](C(=O)N[C@@H](C)C(=O)N[C@H](C(=O)N[C@H](C(=O)NCC(=O)N[C@@H](CCC(N)=O)C(=O)N[C@@H](C)C(=O)N[C@@H](C)C(=O)N[C@H](C(=O)N[C@H](C(=O)N[C@H](C(=O)N[C@@H](CCCCN)C(N)=O)C(C)C)C(C)C)[C@@H](C)O)C(C)C)C(C)C)C(C)C)[C@@H](C)CC
MIC (KCCM 11328, Mueller-Hinton broth; 16 h, 37 °C; growth inhibition over 99%): 4 µM

O=[N+]([O-])[O-].O=[N+]([O-])[O-].O=[N+]([O-])[O-].[Ga+3]
MIC (PAO1): 7.8 µM

CC[C@H](C)[C@H](NC(=O)[C@H](CCCCN)NC(=O)[C@H](CCCNC(=N)N)NC(=O)[C@H](CCCCN)NC(=O)[C@H](CCCNC(=N)N)NC(=O)[C@H](CCCCN)NC(=O)[C@@H](N)CCCNC(=N)N)C(=O)N[C@@H](CO)C(=O)N[C@@H](Cc1ccccc1)C(=O)N[C@@H](CC(C)C)C(=O)NCC(=O)N[C@@H](CO)C(=O)N[C@@H](CCCCN)C(=O)N[C@H](C(=O)N[C@H](C(=O)N[C@H](C(=O)N[C@@H](CC(C)C)C(=O)N[C@@H](CC(C)C)C(=O)N[C@@H](CCCCN)C(=O)N[C@@H](CCCNC(=N)N)C(N)=O)C(C)C)C(C)C)C(C)C
MIC (broth microdilution; ATCC 27853; highest value reported): 16 µM

CC1(C)SC2C(NC(=O)C(NC(=O)C3=C(O)C(Cc4ccc([N+](=O)[O-])cc4)NC3=O)c3ccccc3)C(=O)N2C1C(=O)O (stereo not shown)
MIC (broth microdilution; TonB-dependent receptor mutant; PA two-allele library): 25 mg/L

CC[C@H](C)[C@H](NC(=O)[C@H](CC(C)C)NC(=O)[C@H](CCCCN)NC(=O)[C@@H](NC(=O)[C@H](C)NC(=O)[C@H](CCC(=O)O)NC(=O)[C@H](Cc1c[nH]cn1)NC(=O)[C@@H](NC(=O)[C@H](CCCCN)NC(=O)[C@H](CCC(N)=O)NC(=O)[C@H](Cc1ccccc1)NC(=O)[C@@H](NC(=O)[C@H](CCCCN)NC(=O)[C@H](CCCCN)NC(=O)[C@H](CC(C)C)NC(=O)[C@H](C)N)C(C)C)[C@@H](C)CC)[C@@H](C)CC)C(N)=O
MIC (broth microdilution; 4007 resistant; 18 h, 37 °C): 8 µM

CC(C)(C)OCC1NC(=O)C(C(=O)NC(C(=O)NC2C(=O)N3C2SC(C)(C)C3C(=O)O)c2ccccc2)=C1O (stereo not shown)
MIC (pvdS mutant): 25 mg/L

CC[C@@H](C)[C@@H](N)C(=O)N[C@@H](C(=O)N[C@H](Cc1ccc(O)cc1)C(=O)N[C@@H](C(=O)N[C@H](CCN)C(=O)N[C@H](CC(C)C)C(=O)N[C@H](CO)C(=O)N[C@H](CCN)C(=O)N[C@@H](C(=O)N[C@H](CCN)C(=O)N[C@H](Cc1c[nH]cn1)C(=O)N[C@H](CCN)C(=O)N[C@H](C)C(=O)N[C@H](CCN)C(=O)N[C@H](CCN)C(N)=O)[C@H](C)CC)[C@H](C)CC)[C@H](C)CC
MIC (broth microdilution; CDC 0246, Mueller-Hinton broth): 4 mg/L

Repeated from above:
CC[C@H](C)[C@H](NC(=O)[C@H](CC(C)C)NC(=O)[C@H](CCCNC(=N)N)NC(=O)[C@@H](N)CCCNC(=N)N)C(=O)N[C@@H](CCCNC(=N)N)C(=O)N[C@@H](CCCCN)C(=O)N[C@@H](CC(C)C)C(=O)N[C@@H](CCCCN)C(=O)NCC(=O)N1CCC[C@H]1C(=O)N[C@H](C(=O)N[C@H](C(=O)N[C@@H](Cc1ccc(O)cc1)C(=O)N[C@@H](CC(C)C)C(=O)N[C@@H](Cc1ccc(O)cc1)C(=O)N[C@@H](Cc1ccccc1)C(=O)N[C@@H](CCCCN)C(=O)N[C@@H](CC(C)C)C(=O)N[C@@H](CCC(N)=O)C(=O)N[C@@H](CC(C)C)C(=O)N[C@@H](CC(C)C)C(=O)N[C@@H](CCCCN)C(=O)N[C@@H](CCCCN)C(N)=O)[C@@H](C)CC)[C@@H](C)CC
MIC (KCTC 1637, Mueller-Hinton broth; 24 h): 32 µM
